Experimental data pooled from the literature.
Numbered parts are unrelated; each lists some results of a single study. Several values in a cell are separate wells, animals, samples, runs or records.

Sample 1
Compound: CNC(=O)Nc1ccc2c(c1)C1(CC2)OC(=O)N(CC(=O)N(Cc2ccc(F)cc2)[C@@H](C)C(F)(F)F)C1=O (single isomer, unassigned)
Tested at: 0.1 µM
Reference: DMSO
cell line	assay	setting	viability
normal-adjacent epithelium patient-derived organoids sample F	CellTiter-Glo		96.9% and 102%
normal-adjacent epithelium patient-derived organoids sample G	CellTiter-Glo		116% and 131%
sample C colorectal tumour organoid			97.4%
sample I colorectal tumour organoid		replicate 2	93.7%
sample I colorectal tumour organoid		replicate 1	122%
sample BA colorectal tumour organoid			102%

Sample 2
Host: mouse
Matrix: microsomes or S9
Tested at: 2 µM
Time: 0.5 h
Compound	remaining compound
CSC1=N/C(=C\c2ccc(C(=O)O)cc2)C(=O)S1	> 99%
COc1ccc2c(/C=C3/C(=O)c4ccccc4S(=O)(=O)N3C)c[nH]c2c1	47.4%
Cc1cc(C)c(N(C)S(=O)(=O)c2ccc3c(c2)C(=O)Nc2ccc(C)cc2O3)c(C)c1	98.5%
Clc1nc2cccnc2n2nc(-c3ccco3)cc12	1.32%
Cc1c(Cl)cccc1NC(=O)Cn1c2c(c(=O)n3nc(-c4ccccc4)nc13)CCC2	9.88%

Sample 3
Cell line: mouse MPNST tumor cells
Method: high-content immunofluorescence imaging
Measured: nuclear SOX9
Tested at: 10 µM
Time: 12 h
Setting: mean of 2 replicates
Reference: DMSO control
Reading: higher = more nuclear SOX9
SMILES	nuclear SOX9 intensity
COc1c(O[C@@H]2O[C@H](CO)[C@@H](O)[C@H](O)[C@H]2O)cc2c(c1OC)-c1ccc(SC)c(=O)cc1[C@@H](NC(C)=O)CC2	112 % of DMSO
COC1=CC(=O)C[C@@H](C)[C@]12Oc1c(Cl)c(OC)cc(OC)c1C2=O	107 % of DMSO
CN(C)CCCC1(c2ccc(F)cc2)OCc2cc(C#N)ccc21 (stereo not drawn)	114 % of DMSO and 122 % of DMSO
C[C@@H]1CN(c2cc(-c3n[nH]c4ccc(OC5(C)CC5)cc34)ncn2)C[C@H](C)O1	128 % of DMSO
COc1cc(C=Cc2ccc(OC)cc2OC)cc(OC)c1	164 % of DMSO

Sample 4
Target: Tyrosine-protein kinase JAK2 (JAK2, Homo sapiens, UniProt O60674)
Sequence of UniProt O60674 (whole entry, looked up): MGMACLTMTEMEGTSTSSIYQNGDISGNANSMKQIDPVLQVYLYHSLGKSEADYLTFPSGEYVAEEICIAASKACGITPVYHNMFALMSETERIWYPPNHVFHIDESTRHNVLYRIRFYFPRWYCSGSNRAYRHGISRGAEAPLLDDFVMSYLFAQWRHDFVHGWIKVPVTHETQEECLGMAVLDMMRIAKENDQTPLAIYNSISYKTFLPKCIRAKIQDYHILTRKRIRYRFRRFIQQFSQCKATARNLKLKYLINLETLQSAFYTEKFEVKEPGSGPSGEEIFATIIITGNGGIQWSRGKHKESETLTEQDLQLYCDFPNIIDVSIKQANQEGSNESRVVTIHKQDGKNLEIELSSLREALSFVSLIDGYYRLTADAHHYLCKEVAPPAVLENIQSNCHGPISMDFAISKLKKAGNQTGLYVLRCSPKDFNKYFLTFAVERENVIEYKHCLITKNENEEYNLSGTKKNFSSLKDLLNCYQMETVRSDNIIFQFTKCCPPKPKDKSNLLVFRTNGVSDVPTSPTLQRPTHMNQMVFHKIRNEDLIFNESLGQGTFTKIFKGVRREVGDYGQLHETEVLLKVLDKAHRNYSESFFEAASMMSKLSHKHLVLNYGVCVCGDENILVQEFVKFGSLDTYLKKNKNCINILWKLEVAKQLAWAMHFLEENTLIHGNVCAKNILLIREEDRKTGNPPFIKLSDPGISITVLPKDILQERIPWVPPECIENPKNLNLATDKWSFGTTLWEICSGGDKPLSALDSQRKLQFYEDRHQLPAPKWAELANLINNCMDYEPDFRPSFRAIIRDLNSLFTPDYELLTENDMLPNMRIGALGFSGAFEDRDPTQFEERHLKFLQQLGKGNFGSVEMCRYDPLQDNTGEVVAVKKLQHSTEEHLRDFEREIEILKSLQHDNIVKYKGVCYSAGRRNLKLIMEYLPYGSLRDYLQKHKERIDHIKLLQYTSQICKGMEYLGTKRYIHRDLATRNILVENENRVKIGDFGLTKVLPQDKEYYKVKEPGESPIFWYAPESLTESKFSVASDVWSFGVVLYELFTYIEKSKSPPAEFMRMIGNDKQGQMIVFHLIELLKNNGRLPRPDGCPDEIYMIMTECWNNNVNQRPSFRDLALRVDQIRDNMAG
Observed: enzyme activity
Mode: inhibitor
Tested at: 0.5 µM
Reference: control
SMILES	remaining activity
Nc1ncnc2n[nH]c(Nc3ccc(F)cc3)c12	105%
OCC(O)CCON=C1C(c2c(O)[nH]c3ccccc23)=Nc2ccccc21 (stereo not drawn)	43.1%
COc1ccc(C(=O)Nc2sc3c(c2C(N)=O)CCCC3)cc1OC	99.9%
Oc1ccc(-c2nc(-c3ccncc3)c(-c3ccc(F)cc3)[nH]2)cc1	96.2%
COc1cc2ncnc(Nc3ccc(F)c(Cl)c3)c2cc1OCCCN1CCOCC1	99.8%
O=c1c2ccccc2[nH]c(=S)n1CCN1CCC(=C(c2ccc(F)cc2)c2ccc(F)cc2)CC1	92%
O=C1NC(=O)C(c2cn(CCCn3ccnc3)c3ccccc23)=C1Nc1ccccc1	84.3%
COc1cc2ncnc(Nc3ccc(Oc4ccccc4)cc3)c2cc1OC	95.6%
O=C(CCCc1ccc(-c2ccccc2F)cc1)Nc1ccc(O)cc1	98.5%
O=S(=O)(c1cccc2cnccc12)N1CCCNCC1	107%
CCOC(=O)c1c(C)[nH]c(/C=C2\C(=O)Nc3ccccc32)c1C	96.7%
COc1ccc(CNC(=O)Nc2ncc([N+](=O)[O-])s2)cc1	104%
COc1cc2nccc(Oc3ccc(NC(=S)NC(=O)c4ccccc4C)cc3)c2cc1OC	97.7%
Cc1nc(-c2ccccc2)c(-c2ccncc2)o1	98.4%

A few entries again (sample 3):
SMILES	nuclear SOX9 intensity
COC1=CC(=O)C[C@@H](C)[C@]12Oc1c(Cl)c(OC)cc(OC)c1C2=O	107 % of DMSO
COc1c(O[C@@H]2O[C@H](CO)[C@@H](O)[C@H](O)[C@H]2O)cc2c(c1OC)-c1ccc(SC)c(=O)cc1[C@@H](NC(C)=O)CC2	112 % of DMSO
C[C@@H]1CN(c2cc(-c3n[nH]c4ccc(OC5(C)CC5)cc34)ncn2)C[C@H](C)O1	128 % of DMSO
CN(C)CCCC1(c2ccc(F)cc2)OCc2cc(C#N)ccc21 (stereo not drawn)	114 % of DMSO and 122 % of DMSO
COc1cc(C=Cc2ccc(OC)cc2OC)cc(OC)c1	164 % of DMSO
